Measured values collected from several papers.
Parts stem from different laboratories: compare values within a part only.

Block 1
Target: RING finger protein unkempt homolog, zinc fingers 1-6, GST-SBP tag (UNK, Homo sapiens, UniProt Q9C0B0, residues 30-357)
Technique: RNA Bind-n-Seq
Form: RNA
Medium: in vitro
Tested at: not given
Notes: RNA with constant flanks, human and mouse sites, ends assumed
Baseline: input RNA pool
Reading: higher = stronger binding
Measurement: bound/input enrichment
Shared flanks, not repeated: GGGAGUUCUACAGUCCGACGAUC … CAACAGAGGAUUGAGCAUCA
Target sequence (chain): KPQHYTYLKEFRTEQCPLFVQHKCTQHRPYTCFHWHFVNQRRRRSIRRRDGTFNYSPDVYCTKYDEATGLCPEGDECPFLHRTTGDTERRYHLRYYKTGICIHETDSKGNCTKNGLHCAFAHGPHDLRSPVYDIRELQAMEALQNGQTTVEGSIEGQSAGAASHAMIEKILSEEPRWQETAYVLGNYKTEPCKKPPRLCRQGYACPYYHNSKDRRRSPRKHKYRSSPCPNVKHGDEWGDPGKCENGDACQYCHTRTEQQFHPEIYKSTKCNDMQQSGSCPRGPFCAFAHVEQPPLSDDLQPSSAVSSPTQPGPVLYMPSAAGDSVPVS
UAUAAAAGCAGCUCCCCGCGCGCGCUGUCGGGCGACCUCUUCCUGCGUUCUCACGGCUCUUUCUGUUUGUGAGACCUGUGGCUCGACCCUGCUGAUAGCAAGAUGUCUUCAGGAAAUGCA: 0.306 ratio
CCACCAGUCACUGAGGAAGAUCUAGAUUAUCGGACAGAAAACCAGCAUGUACCCACCACCAGUUCUUCAUUAACUGACCCUCAUGCCGGAGUGAAGGCAGCCCUGUUACAGCUGCUUGCU: 0.204 ratio
CUCAUAUUAGUAGCCAAUGCAAUUGUGGGUGUAUGGCAGGAAAGAAAUGCUGAAAAUGCCAUCGAAGCCCUUAAGGAAUAUGAGCCUGAAAUGGGCAAAGUGUAUCGACAGGACAGAAAG: 0.574 ratio
UUAGCUCUGAUUGACUACCUGACACAGAAACGAAGUCAAUUGGUAAAGAAGCUGAAUGACUCUGAUCACCAGUCAAGCACCUCACCGCUCAUGGAAGGCACUCCCACCAUCAAAUCCAAG: 0.105 ratio
UGACGUGUCUCACUAUGAACUGCAAGUGGAGAUAGGAAGAGGGUUUGACAACUUGACCUCUGUUCAUCUUGCACGGCACACUCCUACAGGAACACUGGUAACUGUAAAGAUUACAAACCU: 0.0722 ratio
UUCUUUGGCGGUGGAUUUCCUUCAGGUAGUGUACAUUCAUUUUCAAAUGGCCGGGCUGCUUACAGCCAUCAACAUCAGCACCGACACAGUGGGCAUGAAAGAGAAGAAGAAAGAGCGGAU: 0.961 ratio
ACUGCAGUGUCCCGGAGCCUGCGUGUGGUGGGCAAGCUCCUCAAAUGGUAUCUCACAGGGAAUAGGGGAGUCUUGAAAACGCAGCUUCGGCAGUAGGAACAUGAACCUCUUACCUAAAAG: 0.181 ratio
GAAAGCACUACCCUAAGCCAUGAAGAACUCCAUGCUUUGCUAACCAAGAUAACUGUUUUCUCUUUGUAGAAGUUUUGUUUUUGAAAUGUGUAUUUCUAAUUAUAUAAAAUAUUAAGAAUC: 1.15 ratio

Block 2
Target: RNA binding protein fox-1 homolog 2, RRM domain, GST-SBP tag (RBFOX2, Homo sapiens, UniProt O43251-10, residues 100-194)
Technique: RNA Bind-n-Seq
Form: RNA
Medium: in vitro
Tested at: 365 nM
Notes: natural RNA segment, single round, ends assumed
Baseline: no-protein control
Reading: higher = stronger binding
Measurement: RBNS enrichment (R)
Shared flanks, not repeated: GGGAGUUCUACAGUCCGACGAUC … UGGAAUUCUCGGGUGCCAA
Construct (chain): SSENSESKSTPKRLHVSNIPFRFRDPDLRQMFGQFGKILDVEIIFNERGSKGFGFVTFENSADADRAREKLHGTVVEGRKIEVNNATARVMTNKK
GCAGGUGACAGCACCCUGCUAGGAAGCUGUGUGUGUCCUGCCUUUCCUCCUGGAAUAUGUACGGAUGGAAGUCUUGGUUGAAGCAGGUUCCCCUGGGAAGUGCUCUCAGC: 0.314
UAUGCCACCUGUGUGUCAGGAUGCACCUGAAAGCCCUCGGCUCGGUCCUUAGACCAUCUUCCUACAUUACCUGGAAGGGAGCUGCCAUCUGUCCCUCUGCAGAGGGAUAC: 0.24
UCUACCACAAAUAUACUUACCCAAGGGCUAAUAGUAAUACUCGAUUAAAAAUGCAGAUGCCUUCUCUUUUGUGUAUUGCGUGUCUGGUCUCAUUCUGACUACAGAUAUGG: 0.425
CCUCUGCAGGGUGAGACUUUUAUUAUUGCCAAUAAGAAUCGAAGGUGAUAAUAAGAUAUAGAAUGCUUUUGUUCAGUUCUCCCCUUACAAAGAAAGUCCCUUGCUUGUCU: 3.71
GUUUCCUGGCUGCUAGUGACCUGCUGUCUACUCCUCCCUCUACAUUGAGCUCUGUUGUAAAUACAUCGCACCAGAGGCCACUGUGACGCCGCUGUCUCCUCCUCUCCAUC: 0.605
GUAUCAUAGUCAUUUAAACCUGGAUAGAUUGUAACCAUUUUCCCUUCACUCUGACACUGUCUUAUUCUGCUGCCACAAUGCAAGCAUAGUUUGUUAUUUUUGUUACUGCC: 0.548
UUCUAUGCUAAACUUUGUUCUGUUCAGUUCUAGAGUGUAUACAGAACGAAUUGAUGUGUAACUGUAUGCAGACUGGUUGUAGUGGAACAAAUCUGAUAACUAUGCAGGUU: 0.73
AUACUUCAUUUGGAGAUGUAUGGUGUAAAACACACAAACACACACAAAAAAGCACAAGCCCGCUGCAUGACCCGUCUCUCCUUUCUGGGACUAUUUCUGCUGCGUCCUGC: 9.12

Block 3
Target: Histone acetyltransferase KAT6A, winged helix 1, GST fusion (KAT6A, Homo sapiens, UniProt Q92794, residues 1-85)
Technique: protein binding microarray
Form: double-stranded DNA, one strand shown
Medium: in vitro
Tested at: not given
Notes: 8-mer, flanks averaged, mean of 2 arrays, mostly near background
Baseline: not given
Reading: higher = stronger binding
Measurement: E-score
Residues (chain): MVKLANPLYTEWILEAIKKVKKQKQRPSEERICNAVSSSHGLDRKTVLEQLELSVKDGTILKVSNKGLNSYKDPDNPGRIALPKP
CAGTTCAG: -0.0282
AGGCAGAT: -0.155
CGTCCGAC: 0.341
AAACAAAC: -0.297
ATCGTGCA: -0.178
GCTTATTA: -0.0171
AACCTAAA: -0.0981
GGGTTAAC: 0.0892
ACTGGACG: 0.077
ACGGCGAA: 0.339
CTCTACGA: -0.159
ACATAAAC: -0.0828
ACTGATGG: -0.0504
ATCGCCAT: 0.0342
CTCTCTAA: -0.126
ACCTTCTG: -0.138
AACTGCAT: -0.179

Block 4
Target: Centromere-binding protein 1, full length, His-tagged (CBF1, Saccharomyces cerevisiae, UniProt P17106, residues 1-351)
Sequence of UniProt P17106 (whole entry, looked up): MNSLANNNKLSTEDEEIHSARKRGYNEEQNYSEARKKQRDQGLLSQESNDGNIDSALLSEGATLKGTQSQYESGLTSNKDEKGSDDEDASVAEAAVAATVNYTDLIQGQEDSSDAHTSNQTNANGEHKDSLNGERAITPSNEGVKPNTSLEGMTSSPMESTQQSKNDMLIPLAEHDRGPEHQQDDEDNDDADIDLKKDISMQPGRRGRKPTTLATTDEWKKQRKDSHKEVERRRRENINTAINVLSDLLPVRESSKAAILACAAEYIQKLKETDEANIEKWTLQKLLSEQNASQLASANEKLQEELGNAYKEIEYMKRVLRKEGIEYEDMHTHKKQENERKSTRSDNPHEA
Technique: competition protein-binding microarray
Form: double-stranded DNA, one strand shown
Medium: in vitro
Tested at: 2 µM
Notes: whole 60-bp probe, lowest competitor level
With: Pho4 competitor, 0.05 µM
Reading: higher = stronger binding
Measurement: fluorescence intensity
Shared flanks, not repeated: … GTCTTGATTCGCTTGACGCTGCTG
TCCAATTATGCGATGCATGTGCCTTCCGTTTAGAGT: 134 a.u.
AGGAAAAGCCAAGATCATAAGCAAGAAAGTTATCCT: 71.8 a.u.
CCCCCAACTGACACACACGTGAGACCCTGCTGAAAG: 689 a.u.
CGAGAAGCTTTCGGCCACGTGGGTATCTGGATTCAA: 934 a.u.
GACACCACTGACTTAACCGTGGGTATATTATATAAG: 67.2 a.u.
AAAGCGGTAATTTGTGCCGTGGGTGCAGATATCTAT: 68.6 a.u.
GTCTTGTCTCATTGTCACAATACTTTCCCCACTTCA: 101 a.u.
CAAAATCTTACCAGAAACGTGCTTTCTTCTGGCTTC: 142 a.u.
CCCCACTCCCGCGAGCACGTGCGCGTCCTCGCTGCT: 1980 a.u.
CTTCTGTAAATTTGTCACGCAACTTGACGCGCCCCG: 143 a.u.
CTCTTAAGCGCAGGCCACGTGCAGACATCGCTTTCG: 1360 a.u.
AGGATCGTTGAGTACAGCGTGGGTAAATTTTTAGCG: 79.3 a.u.
TACAATGTCGAGCCTCTCGTGGGTAATCTGGAACAG: 97.1 a.u.
GCTAGAGAGTTTCACCACGTTAATGGACTGAACCTT: 80.8 a.u.
GTCTTGTCTCATTTTCACGTGGGATTCCCCACTTCA: 428 a.u.
TTTTGCGATAAATTTAACGTGCTTTTGAACAGGATT: 112 a.u.
ACTTTTTCCACTACTCTCGTGGCCGGGAAGACCTGC: 62.5 a.u.
GCACTACCATGTTTGCACGTGTCGGTGTCCTCATCA: 1260 a.u.
AAATTACTAAGTTGCTGAGTGGGTGACGCCGTATGA: 71.7 a.u.
